Results from different studies.
Every numbered part comes from another study and shows a few of its results, in no order.

Study 1
Target: Interferon regulatory factor 7, full length, phosphomimetic (IRF7, Homo sapiens, UniProt Q92985, residues 1-503, S101K/S471D/S472D/S475D/S476D/S477D/S483D/S484D/S487D)
UniProt Q92985, sequence (whole entry, unmodified, looked up): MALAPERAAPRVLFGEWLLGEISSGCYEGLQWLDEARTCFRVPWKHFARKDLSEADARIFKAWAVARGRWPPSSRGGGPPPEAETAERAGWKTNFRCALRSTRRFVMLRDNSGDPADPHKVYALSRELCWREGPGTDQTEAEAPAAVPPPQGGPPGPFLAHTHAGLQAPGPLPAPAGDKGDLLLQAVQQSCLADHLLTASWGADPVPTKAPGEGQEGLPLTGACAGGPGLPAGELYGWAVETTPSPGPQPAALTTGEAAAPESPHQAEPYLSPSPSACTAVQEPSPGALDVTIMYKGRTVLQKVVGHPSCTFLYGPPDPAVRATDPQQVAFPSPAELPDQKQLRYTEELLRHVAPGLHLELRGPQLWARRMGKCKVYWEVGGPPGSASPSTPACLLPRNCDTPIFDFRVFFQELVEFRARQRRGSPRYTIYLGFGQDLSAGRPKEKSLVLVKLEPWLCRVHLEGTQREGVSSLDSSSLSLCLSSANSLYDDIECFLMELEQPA
Technique: protein-binding microarray
Form: double-stranded DNA, one strand shown
Matrix: in vitro
Tested at: 250 nM
Setting: 60-bp whole probe
With: salmon DNA 0.4 mg/ml
Baseline: random background probes
Direction: higher = stronger binding
Measurement: log fluorescence
Constant ends, left off below: GCCTAGCAC … GTCTTGATTCGCTTGACGCTGCTG
TCACATTTTTCCCTCTGACTGTGCTAG: 1.2 z-score
CTCTGGTTCTTGCTTGGTGTCGTGCTA: -0.106 z-score
GACCGTCTCCTTATCCTGACGTGCTAG: 0.503 z-score
TCAAGGTCCCTTTTCATACTGTGCTAG: 1.58 z-score
ACATTCCATGAGCCCACTGGGTGCTAG: 1.13 z-score
GACGGTCTCCTACTGCAGACGTGCTAG: -0.00324 z-score
GACGGTTTCCTTTCCATGACGTGCTAG: 3.36 z-score
GACGGTTTCGACTATCGGGACGTGCTA: 5.25 z-score

Study 2
Cell line: HEK-293T/ACE2
Read-out: pseudovirus infection
Organism: VSV pseudotyped with SARS-CoV-2 spike
Tested at: 10 µM
Time: 16 h
Baseline: vehicle-treated
Measurement: GFP-positive cells
N[C@@H]1CON=C1O: 73.6%
O=C1[C@H](CC[C@H](O)c2ccc(F)cc2)[C@@H](c2ccc(O)cc2)N1c1ccc(F)cc1: 76.5%
C#CCN(C)Cc1ccccc1: 63.5%

Study 3
Target: Histone acetyltransferase KAT6A, winged helix 2, GST fusion (KAT6A, Homo sapiens, UniProt Q92794, residues 85-181)
Technique: protein binding microarray
Form: double-stranded DNA, one strand shown
Matrix: in vitro
Tested at: not given
Setting: 8-mer, flanks averaged, mean of 2 arrays, mostly near background
Baseline: not given
Direction: higher = stronger binding
Measurement: E-score
Construct (chain): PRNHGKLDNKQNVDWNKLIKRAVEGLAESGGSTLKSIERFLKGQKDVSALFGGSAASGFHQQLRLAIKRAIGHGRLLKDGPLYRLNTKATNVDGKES
ACAAGCAT: 0.0402
GGGCGAAA: 0.213
CGAGAATC: 0.061
AGTGCGCA: 0.0737
ATAATACA: 0.133
AAATGCAG: -0.0531
CTGGCTCC: 0.0105
AGCAGTCC: -0.00812

Study 4
Target: Ras GTPase-activating protein-binding protein 1, RRM domain (G3BP1, Homo sapiens, UniProt Q13283)
UniProt Q13283, sequence (whole entry, looked up): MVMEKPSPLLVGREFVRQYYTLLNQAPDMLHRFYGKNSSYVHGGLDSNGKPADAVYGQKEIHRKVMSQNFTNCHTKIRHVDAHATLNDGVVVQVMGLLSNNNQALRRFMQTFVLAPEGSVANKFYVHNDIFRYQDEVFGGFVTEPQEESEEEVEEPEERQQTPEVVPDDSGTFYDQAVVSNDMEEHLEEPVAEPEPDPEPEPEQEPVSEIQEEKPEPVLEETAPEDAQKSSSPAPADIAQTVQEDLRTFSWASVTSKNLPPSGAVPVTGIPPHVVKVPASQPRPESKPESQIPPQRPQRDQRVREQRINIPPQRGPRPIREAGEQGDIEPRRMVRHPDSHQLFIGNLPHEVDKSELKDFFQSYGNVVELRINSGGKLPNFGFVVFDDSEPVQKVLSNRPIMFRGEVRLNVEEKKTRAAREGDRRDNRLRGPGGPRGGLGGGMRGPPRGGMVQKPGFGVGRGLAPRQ
Technique: RNA Bind-n-Seq
Form: RNA
Matrix: in vitro
Tested at: 1 µM
Setting: whole 134-nt RNA, ends assumed
With: 150 mM KCl
Baseline: input library
Direction: higher = stronger binding
Measurement: log2 enrichment
Constant ends, left off below: GGGAGUUCUACAGUCCGACGAUC … UGGAAUUCUCGGGUGUCAAGG
CAAGUCCUGUGCUACACAUCGUAUGUACCGAAUCGGGUUUUUGGGUUUGGGUGGGAAAGUAUUAUGUUACGCCGUUCGGAUCUGCACUUC: 0.608
CUCAAGUCCUGUGCUACACAUCGUAUGUACCGAAUCGGGGAAGGAAGGAAGGGAAAGUAUUAUGUUACGCCGUUCGGAUCUGCACUUCCA: -0.229
UGGGAGGUGGAUUUUGUUUAUUUUUUUAGCUCAUUUCCAGGGGUGGGAAUUUUUUUUUAAUAUGUGUCAUGAAUAACGUUGUUUUUGAAA: 0.761
UGGCCCCGGUGGCAUGCGGGGAGGAAGAGGUGGCCUCAUGGAUCGUGGUGGUCCCGGUGGAAUGUUCAGAGGUGGCCGUGGUGGAGACAG: 0.83
CUCAAGUCCUGUGCUACACAUCGUAUGUACCGAAUCGGGAGGGAAAGGGUGGGAAAGUAUUAUGUUACGCCGUUCGGAUCUGCACUUCCA: 0.701
AGUCCUGUGCUACACAUCGUAUGUACCGAAUCGGGCCCCCGGGGCCCCCGGCCCCCGGAAAGUAUUAUGUUACGCCGUUCGGAUCUGCAC: -0.606
GUCCUGUGCUACACAUCGUAUGUACCGAAUCGGGGAAAAAGGGAAAAAGGGAAAAAGGAAAGUAUUAUGUUACGCCGUUCGGAUCUGCAC: -0.0453
UGGCCCUGGUGGCAUGCGGGGAGGAAGAGGUGGCCUCAUGGAUCGGGGUGGUCCCGGUGGAAUGUUCAGAGGUGGCCGUGGUGGAGACAG: 0.76

Study 5
Target: Replicase polyprotein 1ab, nsp13 helicase (rep, Severe acute respiratory syndrome coronavirus 2, UniProt P0DTD1)
Action: inhibitor
Tested at: 20 µM
Measurement: inhibition
C[C@H](N)C(=O)N[C@@H](C)P(=O)(O)O: -0.65%
Oc1cc2c(cc1O)C(Cc1cccc3ccccc13)NCC2 (stereo not shown): 13.8%
CCCCCCCCCCCCCCCCCCOC[C@H](COP(=O)([O-])OCC[N+](C)(C)C)OC: 2.26%
CCNCCCNCCCCNCCCNCC: -2.53%
CCC(C/C=C/c1ccccc1)(c1ccccc1)N(C)CC1CC1 (stereo not shown): 9.36%
O=C(O)c1ccc2nc(-c3cc(Cl)cc(Cl)c3)oc2c1: 5.94%
C[C@@H]1CC[C@@]2(OC1)O[C@H]1C[C@H]3[C@@H]4CC=C5C[C@@H](O[C@@H]6O[C@H](CO)[C@@H](O[C@@H]7O[C@@H](C)[C@H](O)[C@@H](O)[C@H]7O)[C@H](O)[C@H]6O[C@@H]6O[C@@H](C)[C@H](O)[C@@H](O)[C@H]6O)CC[C@]5(C)[C@H]4CC[C@]3(C)[C@H]1[C@@H]2C: 5.29%
CC[C@@](C)(Nc1ccnc(-c2c[nH]c3ncccc23)n1)C(=O)NCC(F)(F)F: 2.63%
Cc1cc(-c2ncc(CC(=O)Nc3ccc(-c4cnccn4)cn3)cc2C)ccn1: 6.26%
CO[C@H]1CC[C@H](N(c2cc(C3=CCCCC3)sc2C(=O)O)C(=O)[C@H]2CC[C@H](C)CC2)CC1: 73.7%
Cc1nc2cnc3ccc(C#Cc4cccnc4)cc3c2n1-c1ccc(C(C)(C)C#N)cc1: 17.3%
O=C(O)CCCCC(CCSCc1ccccc1)SCc1ccccc1 (stereo not shown): 5.53%
CCCCC(=O)N(Cc1ccc(-c2ccccc2-c2nnn[nH]2)cc1)[C@H](C(=O)O)C(C)C: 9.06%
COc1ccncc1C(=O)NC(=O)Nc1ccc(-c2ccccc2)c(C(F)(F)F)c1: 1.73%
NCCCC[C@@H]1NC(=O)[C@@H](Cc2c[nH]c3ccccc23)NC(=O)[C@H](c2ccccc2)NC(=O)[C@@H]2C[C@@H](OC(=O)NCCN)CN2C(=O)[C@H](Cc2ccccc2)NC(=O)[C@H](Cc2ccc(OCc3ccccc3)cc2)NC1=O: 14.9%
C=CC(=O)Nc1cc2c(Nc3ccc(F)c(Cl)c3)ncnc2cc1OCCCN1CCOCC1: 8.67%
C/N=C(/NC#N)NCCSCc1csc(NC(=N)N)n1: -4.64%
O=C(O)/C=C/c1ccc(-c2ccc(O)c(C34CC5CC(CC(C5)C3)C4)c2)cc1: 15.7%
CCn1c(-c2nonc2N)nc2cncc(CNC3CCNCC3)c21: 6.31%
C=CCN1CCc2cc(O)c(O)cc2C(c2ccccc2)C1 (stereo not shown): 1.36%
COc1ccccc1S(=O)(=O)Nc1ccc2c(c1)CN(C)C(=O)N2: -3.74%
O=C(NNC(=O)c1ccc(CNS(=O)(=O)c2ccc(F)c(Cl)c2)cc1)c1ccccc1: -1.46%
COc1cc(-n2cnc3cc(-c4ccc(Cl)cc4)sc3c2=O)ccc1OCCN1CCCC1: 5.37%
Cc1cc(/C=C/c2ccc3cc(N(C)C)ccc3[n+]2C)c(C)n1-c1ccccc1: -2.78%
CC(C)C(=O)Nc1ncc(-c2cc(C(F)F)nn2-c2c(Cl)cccc2Cl)s1: 0.84%

Study 6
Target: Replicase polyprotein 1ab, main protease (rep, Severe acute respiratory syndrome coronavirus 2, UniProt P0DTD1)
Read-out: enzyme activity
Action: inhibitor
Tested at: 20 µM
Setting: primary screen
Measurement: inhibition
C=CC(=O)c1ccc2ccccc2c1: 94.5%
Cc1cc(O)c2c(c1)C(=O)c1cccc(O)c1C2=O: 31.1%
C=C1C(=O)O[C@@H]2[C@H]3O[C@]3(C)CC/C=C(\C)CC[C@@H]12: 43.9%

Repeated from above (study 5):
CCNCCCNCCCCNCCCNCC: -2.53%
CCC(C/C=C/c1ccccc1)(c1ccccc1)N(C)CC1CC1 (stereo not shown): 9.36%
O=C(O)c1ccc2nc(-c3cc(Cl)cc(Cl)c3)oc2c1: 5.94%
C[C@@H]1CC[C@@]2(OC1)O[C@H]1C[C@H]3[C@@H]4CC=C5C[C@@H](O[C@@H]6O[C@H](CO)[C@@H](O[C@@H]7O[C@@H](C)[C@H](O)[C@@H](O)[C@H]7O)[C@H](O)[C@H]6O[C@@H]6O[C@@H](C)[C@H](O)[C@@H](O)[C@H]6O)CC[C@]5(C)[C@H]4CC[C@]3(C)[C@H]1[C@@H]2C: 5.29%
CC[C@@](C)(Nc1ccnc(-c2c[nH]c3ncccc23)n1)C(=O)NCC(F)(F)F: 2.63%
Cc1cc(-c2ncc(CC(=O)Nc3ccc(-c4cnccn4)cn3)cc2C)ccn1: 6.26%
CO[C@H]1CC[C@H](N(c2cc(C3=CCCCC3)sc2C(=O)O)C(=O)[C@H]2CC[C@H](C)CC2)CC1: 73.7%
Cc1nc2cnc3ccc(C#Cc4cccnc4)cc3c2n1-c1ccc(C(C)(C)C#N)cc1: 17.3%
